Published values collected from several papers.
Protocols differ between the studies behind these lines. “And” joins repeats or separate records; there may be more than shown. ± gives the spread as reported. Values after ≈ are worked out from the molar mass of the structure shown.
Sequence of UniProt P48729 (whole entry, looked up): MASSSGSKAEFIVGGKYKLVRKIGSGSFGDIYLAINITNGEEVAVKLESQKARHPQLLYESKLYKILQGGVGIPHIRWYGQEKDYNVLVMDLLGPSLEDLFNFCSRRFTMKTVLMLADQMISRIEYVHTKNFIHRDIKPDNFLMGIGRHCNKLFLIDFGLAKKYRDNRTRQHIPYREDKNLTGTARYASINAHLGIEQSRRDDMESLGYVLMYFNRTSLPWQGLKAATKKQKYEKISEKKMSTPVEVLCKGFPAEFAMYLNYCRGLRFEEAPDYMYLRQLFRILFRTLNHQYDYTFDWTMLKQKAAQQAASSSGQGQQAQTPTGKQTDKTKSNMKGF
Sequence of UniProt Q96SW2 (whole entry, looked up): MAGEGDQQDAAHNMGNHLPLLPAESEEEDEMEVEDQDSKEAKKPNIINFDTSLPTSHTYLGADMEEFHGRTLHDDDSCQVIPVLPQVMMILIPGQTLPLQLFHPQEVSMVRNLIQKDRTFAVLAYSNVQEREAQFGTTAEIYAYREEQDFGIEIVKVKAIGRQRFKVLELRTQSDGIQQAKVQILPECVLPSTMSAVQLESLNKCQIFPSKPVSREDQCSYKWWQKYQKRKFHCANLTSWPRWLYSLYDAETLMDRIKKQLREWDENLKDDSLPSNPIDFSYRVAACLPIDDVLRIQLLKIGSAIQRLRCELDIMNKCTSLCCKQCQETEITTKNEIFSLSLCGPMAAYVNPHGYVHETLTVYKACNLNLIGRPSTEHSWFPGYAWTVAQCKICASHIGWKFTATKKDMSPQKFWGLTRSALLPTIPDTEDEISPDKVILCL
Sequence of UniProt P35030 (whole entry, unmodified, looked up): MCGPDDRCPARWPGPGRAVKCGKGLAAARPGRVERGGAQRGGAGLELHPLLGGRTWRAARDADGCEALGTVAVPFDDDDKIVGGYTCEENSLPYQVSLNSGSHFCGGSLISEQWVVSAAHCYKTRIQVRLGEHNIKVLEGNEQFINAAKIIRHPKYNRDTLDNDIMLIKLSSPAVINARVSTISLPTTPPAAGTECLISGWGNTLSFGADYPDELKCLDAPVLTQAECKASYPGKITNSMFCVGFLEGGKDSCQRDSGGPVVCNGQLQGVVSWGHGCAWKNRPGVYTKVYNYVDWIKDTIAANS

Compound | target or system | assay | test system | setting | how to read | measurement | result
Cn1ncc2cc(-c3cncc(Cl)c3N3CCC4(CCNC4=O)CC3)ccc21 | LS174T | gene expression, microarray, measured: ANKRD37 mRNA |  | concentration not given, 24 h | reference: untreated cells | log2 fold change | 2.02
C=CC(=O)N1[C@@H](c2ccc3c(c2)OCO3)c2[nH]c3ccccc3c2C[C@H]1C(=O)N1CCN(C)CC1 | human cyclin E1 wild type-3xFLAG:CDK2 | co-IP with TMT proteomics, measured: SNRPD3 |  | concentration not given, P62318 | reference: wild type DMSO | relative co-enrichment | 100%
NC(=O)[C@H](Cc1c[nH]c2ccc(F)cc12)NC(=O)[C@@H]1CCCCN1C(=O)[C@@H]1Cc2c([nH]c3ccccc23)CN1C(=O)CCl | Peptidyl-prolyl cis-trans isomerase NIMA-interacting 1 (PIN1, Homo sapiens, UniProt Q13526) | protein degradation, degrader | human cancer cell lines | 24 h |  | DC50 | ~500 nM
CC(C)c1ccc(N(C)c2ccc3c(c2)OCC[C@H]3CNc2cnccc2C(=O)O)cc1 | KYSE-150 | cell growth or viability, ATP luminescence |  | 7 days |  | IC50 | 5.1 nM
COc1cc(O)ccc1CCC(c1ccc(O)cc1)c1cc2c(c(C)c1O)OC(c1ccc(O)cc1)CC2 (mixture of isomers) |  |  | human blood | 30 µM, with: A23187 |  | PGE2 level | 30 ± 8 pg/mL
CN1CCCNC(=O)c2cccc(c2)C(=O)NCCCN(C)CCCNc2cccc3c2C(=O)c2cccc(c2C3=O)NCCC1 | SAS | RNA-Seq, measured: RELCH mRNA |  | 1 µM, 6 h | reference: untreated cells | log2 fold change | -1.55
COC1OC(C)C(OC2OC(C)C(OS(=O)(=O)O)C(OS(=O)(=O)O)C2OS(=O)(=O)O)C(OS(=O)(=O)O)C1OS(=O)(=O)O (stereo not drawn) |  |  | human plasma | 128 µg/mL | reference: control | thrombin time prolongation | 1 fold
CCc1c(C(=O)Nc2ccc3c(c2)CN(C2CCC(=O)NC2=O)C3=O)[nH]c2c(CNC(C)=O)cccc12 (stereo not drawn) | Cereblon/Casein kinase I alpha (CSNK1A1/CRBN, Homo sapiens, UniProt P48729+Q96SW2) | protein level, degrader, luciferase |  |  |  | DC50 | 9.5 nM
C=CC(=O)Nc1cccc(Cn2ncc3cnc(Nc4cnn(CCOC)c4)nc32)c1 | human JNK3 | KINOMEscan |  | 100 nM | reference: control | binding | 73%
Cc1nc(-c2c[nH]c(C(=O)Nc3ncccc3O)c2)cs1 | Trypsin-3 (Homo sapiens, UniProt P35030, W279Q) | enzyme activity, inhibitor |  | mixed inhibition model |  | Ki | 239000 ± 4300 nM
COC1OC(C)C(OC2OC(C)C(O)C(OC3OC(C)C(OC4OC(C)C(O)C(OC5OC(C)C(OC6OC(C)C(O)C(OS(=O)(=O)O)C6OS(=O)(=O)O)C(OS(=O)(=O)O)C5OS(=O)(=O)O)C4OS(=O)(=O)O)C(OS(=O)(=O)O)C3OS(=O)(=O)O)C2OS(=O)(=O)O)C(OS(=O)(=O)O)C1OS(=O)(=O)O (stereo not drawn) |  |  | human plasma | 128 µg/mL | reference: control | thrombin time prolongation | 1 fold
Cc1ncsc1-c1ccc(C(C)NC(=O)C2CC(O)CN2C(=O)C(NC(=O)CCCCCCCCCCN2CCCC(Nc3ncc(Cl)c(Nc4ccccc4S(=O)(=O)C(C)C)n3)C2)C(C)(C)C)cc1 (stereo not drawn) | 22Rv1 | RNA-seq, measured: ZNF510 mRNA |  | concentration not given | reference: DMSO | log2 fold change | -1.33
Cc1nn(-c2cccc(N)c2)c(=O)c2cnc(Nc3ccc(N4CCNCC4)cc3)nc12 | Receptor-type tyrosine-protein kinase FLT3 (FLT3, Homo sapiens, UniProt P36888, D835Y) | kinase activity, inhibitor, SelectScreen kinase profiling |  |  |  | IC50 | > 10000 nM
CCN(CC)CC#CCNc1ccnc2cc(Cl)ccc12 | Salmonella typhimurium | mini-Ames test | TA1535 | 500.0 µg/well, without S9 |  | revertants | 1 revertants/well and 5 revertants/well
CC(C)OCCOCc1ccc(OCC(O)CN(N=O)C(C)C)cc1 (stereo not drawn) | Salmonella typhimurium | Ames test | TA1537 | 5 µg/plate, without metabolic activation | reference: solvent control | revertant fold increase | 1 fold
COC1CN([C@H]2CC[C@H]([C@@]3(C)Oc4c(Cl)cc(C(=O)NCc5c(SC)cc(C)[nH]c5=O)c(C)c4O3)CC2)C1 |  | RNA-seq, measured: SCARF1 | human, whole blood | dose not given, 24 h | reference: pretreatment baseline | log2 fold change | 1.37
C=C(NC(=O)c1csc(-c2nc3c(cc2O)-c2nc(cs2)C(=O)NC(C(C)O)C(=O)NC(=C(C)OC)c2nc(cs2)C(=O)NC2c4nc(cs4)C(=O)NC(COC(=O)c4c5c6c(cccc6n4O)COC(=O)C(OC4CC(C)(O)C(N(C)C)C(C)O4)C2OC5)c2nc-3cs2)n1)C(N)=O (stereo not drawn) | Enterococcus faecium | microbial growth |  | clinical isolate |  | MIC90 | 0.0312 µg/mL (≈ 0.0217 µM)

Compound | target or system | assay | test system | setting | how to read | measurement | result
C=C1CC[C@H](OCCCNC(=O)CCOCCOCCOCCOCCOCCOCCOCCOCCOCCOCCOCCOCCOCCOCCOCCOCCOCCOCCOCCOCCOCCOCCOCCOCCOCCOCCOCCOCCOCCOCCOCCOCCOCCOCCOCCOCCNC(=O)CCN2C(=O)CC(SC[C@H](NC(=O)[C@H](Cc3ccccc3)NC(=O)[C@H](CC(N)=O)NC(=O)[C@H](Cc3c[nH]cn3)NC(=O)[C@@H](NC(=O)[C@H](CC(=O)O)NC(=O)[C@H](CCC(N)=O)NC(=O)[C@H](CC(C)C)NC(=O)[C@H](CCCCN)NC(=O)[C@H](CCCCN)NC(=O)[C@H](CCCNC(=N)N)NC(=O)[C@H](CC(C)C)NC(=O)[C@H](Cc3c[nH]c4ccccc34)NC(=O)[C@H](CCC(=O)O)NC(=O)[C@@H](NC(=O)[C@H](CCCNC(=N)N)NC(=O)[C@H](CCC(=O)O)NC(=O)[C@H](CCSC)NC(=O)[C@H](CO)NC(=O)[C@H](CC(N)=O)NC(=O)[C@H](CC(C)C)NC(=O)[C@H](Cc3c[nH]cn3)NC(=O)[C@H](CCCCN)NC(=O)CNC(=O)[C@H](CC(C)C)NC(=O)[C@H](CC(N)=O)NC(=O)[C@H](Cc3c[nH]cn3)NC(=O)[C@H](CCSC)NC(=O)[C@H](CC(C)C)NC(=O)[C@H](CCC(N)=O)NC(=O)[C@@H](NC(=O)[C@H](CCC(=O)O)NC(=O)[C@H](CO)NC(=O)[C@@H](NC(=O)[C@@H](N)CO)C(C)C)[C@@H](C)CC)C(C)C)C(C)C)C(=O)O)C2=O)C/C1=C/C=C1\CCC[C@]2(C)[C@@H]([C@H](C)CCCC(C)(C)O)CC[C@@H]12 (stereo partly drawn) |  |  | male cynomolgus monkey, plasma | subcutaneous, 0.02 mg/kg, single dose |  | Cmax | 61.1 ng/mL
COc1ccccc1-c1ccncc1C(=O)Nc1nnc(OCc2ccc(Cl)cc2)s1 | PEO1 BRCA2-mutant ovarian cancer |  |  | 0.5 µM, with: olaparib 2 µM |  | colony survival | 0%
Nc1ncc(-c2cc(-c3cnn(CC(F)(F)F)c3)ncc2F)nc1C(=O)NC1CNCC(F)C1 (stereo not drawn) | ACVRL1 | KINOMEscan |  | 1 µM | reference: DMSO control | remaining binding | 76%
COC1OC(C)C(OC2OC(C)C(OS(=O)(=O)O)C(OC3OC(C)C(OC4OC(C)C(OS(=O)(=O)O)C(OC5OC(C)C(OS(=O)(=O)O)C(OS(=O)(=O)O)C5OS(=O)(=O)O)C4OS(=O)(=O)O)C(OS(=O)(=O)O)C3OS(=O)(=O)O)C2OS(=O)(=O)O)C(OS(=O)(=O)O)C1OS(=O)(=O)O (stereo not drawn) |  |  | human plasma | 128 µg/mL |  | thrombin time | 9.7 ± 0.8 s
Cc1cccc2c1N(C(=O)n1ccnn1)CC2 | Oryza sativa |  |  | concentration not given, average |  | plant height | 21.8 cm
CCCC[C@H](NC(=O)COCCOCCNC(=O)CN1CCN(CC(=O)O)CCN(CC(=O)O)CC1)C(=O)N[C@H]1CC(=O)NCCCC[C@@H](C(N)=O)NC(=O)[C@H](Cc2c[nH]c3ccccc23)NC(=O)[C@H](CCCNC(=N)N)NC(=O)[C@@H](Cc2ccccc2)NC(=O)[C@H](Cc2c[nH]cn2)NC1=O [technetium-99m labelled] |  |  | C57 mouse, bone | intravenous, 0.037 MBq, 2 h |  | tissue uptake | 0.24 ± 0.17 %ID/g
CC(C)C[C@H](NC(=O)[C@@H](CCCCNC(=O)[C@@H](Cc1ccccc1)NC(=O)CCCCCNC(=O)CN1CCN(CC(=O)O)CCN(CC(=O)O)CCN(CC(=O)O)CC1)NC(=O)[C@H](Cc1ccc(O)cc1)NC(=O)[C@H](CO)NC(=O)[C@H](Cc1c[nH]c2ccccc12)NC(=O)[C@H](Cc1c[nH]cn1)NC(=O)[C@@H]1CCC(=O)N1)C(=O)N[C@@H](CCCNC(=N)N)C(=O)N1CCC[C@H]1C(=O)NCC(N)=O [indium-111 labelled] |  |  | female athymic nude mice, bone | intravenous, 0.037 MBq, 2 h |  | tissue uptake | 0.04 ± 0.01 %ID/g
COc1cc2c(NC3CCN(C(C)C)CC3)cc(N3CCOCC3)nc2cc1OCCCN1CCCC1 |  | TMT quantitative proteomics, measured: phosphoglycerate mutase 1 | 5xFAD mice, hippocampus | dose not given |  | normalised protein abundance | -0.0036 and 0.0105 and -0.0434 and 0.00402 and -0.0625 and -0.0253 and -0.111 and -0.0515
O=C(Nc1cnccc1-c1ccc([18F])cc1)c1ccnc(NC(=O)C2CC2)c1 |  | ex vivo gamma counting | FVB/NJ mice, both sexes, right kidney | intravenous, 120 min |  | mean SUV | 0.49
COC1OC(C)C(OC2OC(C)C(OS(=O)(=O)O)C(OC3OC(C)C(OC4OC(C)C(OS(=O)(=O)O)C(OC5OC(C)C(OS(=O)(=O)O)C(OS(=O)(=O)O)C5O)C4O)C(OS(=O)(=O)O)C3O)C2O)C(OS(=O)(=O)O)C1O (stereo not drawn) |  |  | human plasma | 128 µg/mL | reference: control | thrombin time prolongation | 0.9 fold
CNS(=O)(=O)Nc1nccc(Cc2c(C)c3ccc(Oc4ncccc4F)cc3oc2=O)c1F | HS-SY-II | cell viability, CellTiter-Glo |  | 7 days |  | IC50 | 574 nM
c1ccc(-c2n[nH]cc2-c2ccnc3ccccc23)nc1 | CDC15 (Candida albicans) | kinase binding, MIB/MS competition | Candida albicans lysate | 10 µM | reference: DMSO | log2 fold change | -0.23
COC1OC(C)C(OC2OC(C)C(O)C(OC3OC(C)C(OC4OC(C)C(O)C(OS(=O)(=O)O)C4OS(=O)(=O)O)C(OS(=O)(=O)O)C3OS(=O)(=O)O)C2OS(=O)(=O)O)C(OS(=O)(=O)O)C1OS(=O)(=O)O (stereo not drawn) |  |  | human plasma | 128 µg/mL |  | thrombin time | 9.6 ± 0.5 s
CCN(CC)CC(=O)Nc1cccc(-n2cc(-c3ccc4ccc(-c5cn(-c6cccc(NC(=O)CN(CC)CC)c6)nn5)cc4c3)nn2)c1 | RCC4 | PCR angiogenesis array, measured: BAI1 |  | 5 x IC50, 6 h, normoxia | reference: untreated | fold regulation | -1.04
COC1OC(C)C(O)C(OC2OC(C)C(O)C(OC3OC(C)C(O)C(OC4OC(C)C(O)C(OC5OC(C)C(O)C(OC6OC(C)C(O)C(OC7OC(C)C(O)C(OS(=O)(=O)O)C7OS(=O)(=O)O)C6OS(=O)(=O)O)C5OS(=O)(=O)O)C4OS(=O)(=O)O)C3OS(=O)(=O)O)C2OS(=O)(=O)O)C1OS(=O)(=O)O (stereo not drawn) |  |  | human plasma | 128 µg/mL |  | thrombin time | 11 ± 0.3 s
CC(C)C[C@H](NC(=O)[C@H](Cc1ccc(O)cc1)NC(=O)[C@@H](CCCNC(=N)N)NC(=O)[C@@H](CO)NC(=O)[C@H](Cc1ccccc1)NC(=O)[C@H](CC1CCCCC1)NC(=O)[C@H](CC(=O)O)NC(=O)CN1CCN(CC(=O)O)CCN(CC(=O)O)CCN(CC(=O)O)CC1)C(=O)N[C@@H](Cc1c[nH]c2ccccc12)C(=O)N[C@@H](CO)C(=O)O [copper-64 labelled] |  |  | human, stomach contents | concentration not given, 3 h |  | activity concentration | 559 Bq/mL and 939 Bq/mL and 1090 Bq/mL and 442 Bq/mL and 138 Bq/mL and 395 Bq/mL

A few entries again:
Compound | target or system | assay | test system | setting | how to read | measurement | result
COC1OC(C)C(OC2OC(C)C(OS(=O)(=O)O)C(OC3OC(C)C(OC4OC(C)C(OS(=O)(=O)O)C(OC5OC(C)C(OS(=O)(=O)O)C(OS(=O)(=O)O)C5OS(=O)(=O)O)C4OS(=O)(=O)O)C(OS(=O)(=O)O)C3OS(=O)(=O)O)C2OS(=O)(=O)O)C(OS(=O)(=O)O)C1OS(=O)(=O)O (stereo not drawn) |  |  | human plasma | 128 µg/mL |  | thrombin time | 9.7 ± 0.8 s
Cc1cccc2c1N(C(=O)n1ccnn1)CC2 | Oryza sativa |  |  | concentration not given, average |  | plant height | 21.8 cm
CCCC[C@H](NC(=O)COCCOCCNC(=O)CN1CCN(CC(=O)O)CCN(CC(=O)O)CC1)C(=O)N[C@H]1CC(=O)NCCCC[C@@H](C(N)=O)NC(=O)[C@H](Cc2c[nH]c3ccccc23)NC(=O)[C@H](CCCNC(=N)N)NC(=O)[C@@H](Cc2ccccc2)NC(=O)[C@H](Cc2c[nH]cn2)NC1=O [technetium-99m labelled] |  |  | C57 mouse, bone | intravenous, 0.037 MBq, 2 h |  | tissue uptake | 0.24 ± 0.17 %ID/g
CC(C)C[C@H](NC(=O)[C@@H](CCCCNC(=O)[C@@H](Cc1ccccc1)NC(=O)CCCCCNC(=O)CN1CCN(CC(=O)O)CCN(CC(=O)O)CCN(CC(=O)O)CC1)NC(=O)[C@H](Cc1ccc(O)cc1)NC(=O)[C@H](CO)NC(=O)[C@H](Cc1c[nH]c2ccccc12)NC(=O)[C@H](Cc1c[nH]cn1)NC(=O)[C@@H]1CCC(=O)N1)C(=O)N[C@@H](CCCNC(=N)N)C(=O)N1CCC[C@H]1C(=O)NCC(N)=O [indium-111 labelled] |  |  | female athymic nude mice, bone | intravenous, 0.037 MBq, 2 h |  | tissue uptake | 0.04 ± 0.01 %ID/g
